Experimental data pooled from the literature.
A part holds a random share of what one study measured. Positions count from the first letter of the parent shown.

Block 1
Target: HLA class I histocompatibility antigen, A alpha chain, allele A*25:01 (Homo sapiens, UniProt P04439)
Effect on: peptide-MHC binding
Molecule type: peptide
Concentration: concentration not given
Measurement: binding
VTGCASLYV: inactive
FLQQRKPPL: inactive
MHYGYNRAN: inactive
ILNRETLLDFV: inactive
WLGHPFTPV: inactive
FLAFFSNGV: inactive
TTDDSTSYY: inactive
LMLHQQYNQ: inactive

Block 2
Target: CCND2, cyclin fold, Cln2 fusion (human)
Method: yeast growth competition, sequencing
Sample: yeast
Setting: strong parent motif
Reference: not given
Reading: higher = stronger binding
Measurement: normalised enrichment score
Starting sequence: viral docking peptide; YKVKRRLVFGADD
D12T: 0.967
G10E: 2.21
A11R: 1.31
R5N: -0.398
K2P: 2.04
K4L: -0.0695
R6C: 0.592
V8R: 0.301

Block 3
Target: UBE2D2 UBC core domain (UniProt P62837)
Chain of UniProt P62837 (whole entry, looked up): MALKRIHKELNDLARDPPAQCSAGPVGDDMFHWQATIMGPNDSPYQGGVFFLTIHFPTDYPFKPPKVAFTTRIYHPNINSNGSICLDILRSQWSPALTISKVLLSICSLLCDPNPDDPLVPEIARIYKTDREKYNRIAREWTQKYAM
Method: yeast two-hybrid
Sample: yeast
Setting: mostly zero background
Reference: not given
Reading: higher = stronger interaction
Measurement: lacZ reporter activity
B1: NFX1 RING domain (UniProt Q12986); chain IEQLTTEKYECMVCCELVRVTAPVWSCQSCYHVFHLNCIKKWARSPASQADGQSGWRCPACQNVSAHVPNTY
B2: HLTF RING domain (UniProt Q14527); chain LILSSGSDEECAICLDSLTVPVITHCAHVFCKPCICQVIQNEQPHAKCPLCRNDIHEDNLLE
B3: RUFY1 RING domain (UniProt Q96T51); chain QALKGHAWLKDDEATHCRQCEKEFSISRRKHHCRNCGHIFCNTCSSNELALPSYPKPVRVCDSCHTLLLQRCSSTAS
B4: MKRN3 RING domain (UniProt Q13064); chain FAVQRGMDKVCGICMEVVYEKANPNDRRFGILSNCNHSFCIRCIRRWRSARQFENRIVKSCPQCRVTSELVIPSE
B5: MARCHF1 RING domain (UniProt Q8TCQ1); chain TAPRSQSRLSVCPSTQDICRICHCEGDEESPLITPCRCTGTLRFVHQSCLHQWIKSSDTRCCELCKYDFIMETKLKPLRKWE
B6: CNOT4 RING domain (UniProt O95628); chain MSRSPDAKEDPVECPLCMEPLEIDDINFFPCTCGYQICRFCWHRIRTDENGLCPACRKPYPED
B7: VPS8 RING domain (UniProt Q8N3P4); chain TRGLNPKQDYCSICLQQYKRRQEMADEIIVFSCGHLYHSFCLQNKECTVEFEGQTRWTCYKCSSSNKVGKLSE
B1 (NFX1 RING domain): 0
B2 (HLTF RING domain): 0
EIKEYKARLTCPCCNTRKKDAVLTKCFHVFCFECVRGRYEARQRKCPKCNAAFGAHDFHR (RNF40 RING domain (UniProt O75150)): 0
B3 (RUFY1 RING domain): 0
B4 (MKRN3 RING domain): 0
B5 (MARCHF1 RING domain): 0
B6 (CNOT4 RING domain): 15300
B7 (VPS8 RING domain): 0

Further values, each from its own experiment
CCOC(=O)[C@@H]1CSCC(=O)N[C@H](CC)C(=O)N(C)[C@@H](C)C(=O)N[C@@H](CC(C)C)C(=O)N(C)[C@H](C)C(=O)N(CC(C)C)CC(=O)N[C@H](CC(C)C)C(=O)N(C)[C@@H](C)C(=O)N[C@@H](CC(C)C)C(=O)N1C  log k' (60) (PRP-column chromatography): 1.08

Excerpt of the above (block 1):
VTGCASLYV: inactive
FLQQRKPPL: inactive
